Published values of several laboratories.
Each line is one published result; not all experiments were run side by side. Several values in a cell are separate wells, animals, samples, runs or records.
Target: Serine/threonine-protein kinase TAO3 (TAOK3, Homo sapiens, UniProt Q9H2K8)

NC(=O)[C@@H](O)C[C@H]1CCc2sc3ncnc(O[C@H]4CC[C@H](N5CCOCC5)CC4)c3c21  inhibition (enzyme activity, inhibitor; 10 µM): 1%
Nc1ncc(-c2cc(-c3cnn(CC(F)(F)F)c3)ncc2F)nc1C(=O)NC1CNCC(F)C1 (centres unmarked)  remaining activity (enzyme activity; 1 µM; reference: DMSO control): 81.2%
O=C=[N][Ru-4]123([n]4c5ccc(O)cc5c5c6c(c7cc(F)c[n+]1c7c54)C(=O)NC6=O)[S+]1CC[S+]2CC[S+]3CC1 (centres unmarked)  remaining activity (enzyme activity; 100 nM, human enzyme, added: 10 µM ATP; reference: untreated): 100%
Cc1cccc(O[C@H]2CCC[C@@H](C(C)CNCc3ccncc3)C2)c1 (relative stereo)  inhibition (enzyme activity, inhibitor; 1 µM): -3%
COc1c(OCCCN2CCOCC2)ccc2c1N=C(NC(=O)c1cnc(N)nc1)N1CCN=C21  remaining activity (kinase activity, inhibitor; 1 µM; reference: untreated control): 98%
C=CC(=O)Nc1cccc(-c2cnc3[nH]cc(C(=O)NC(C)(C)C)c3n2)c1  inhibition (kinase activity; 0.1 µM): 21% and 22%
O=C(Cc1ccc(OCc2ccccc2)cc1)NC1(C(=O)O)CCN(C(=O)c2ccc(-c3cccc(Cl)c3)cc2)CC1  activity vs control (enzyme activity, inhibitor; 10 µM): 139%
Cc1cnc2nc1Nc1cccc(c1)COC/C=C/COCc1cc(ccc1OCCN1CCOCC1)N2  remaining binding (binding, competition with immobilised ligand; 0.1 µM): 100%
CN1CC[C@@H](COc2cnc(C#N)cc2-c2ccn3nc(NC(=O)C4CC4)cc3c2)C1  inhibition (enzyme activity, inhibitor; 1 µM): 4%
CCN1CCN(Cc2ccc(C(=O)Nc3ccc(C)c(NCc4cnc5[nH]ccc5c4OC)c3)cc2C(F)(F)F)CC1  remaining binding (binding, competition with immobilised ligand; 1 µM): 5.2%
COc1cc(Nc2nc(C)cc(-c3cnn4nc(OC)ccc34)n2)cc(C(F)(F)F)c1  remaining binding (binding, competition with immobilised ligand; 1 µM): 75%
C=CC(=O)N1Cc2nc(-c3cc(-c4cc(Cl)cnc4Cl)c(F)cc3F)n(-c3ccncn3)c2C1  inhibition (cell-free assay, inhibitor; 1 µM): -0.8%
C[C@]1(O)CCCN(c2nc(Nc3ccc(S(=O)(=O)N[C@H]4CC[C@H](CN5CCN(c6ccc(C7CCC(=O)NC7=O)cc6F)CC5)CC4)cc3)ncc2C(F)(F)F)C1 (some centres unmarked)  remaining binding (binding, competition with immobilised ligand; 1 µM): 32%
Cc1ccc(-c2c(/C=C(\C#N)C(=O)NC(C)C)n(CCCO)c3ncnc(N)c23)cc1  remaining binding (cell-free assay, competition with immobilised ligand; 1 µM): 100%

For quick reference, copied from above:
Cc1ccc(-c2c(/C=C(\C#N)C(=O)NC(C)C)n(CCCO)c3ncnc(N)c23)cc1  remaining binding (cell-free assay, competition with immobilised ligand; 1 µM): 100%
Nc1ncc(-c2cc(-c3cnn(CC(F)(F)F)c3)ncc2F)nc1C(=O)NC1CNCC(F)C1 (centres unmarked)  remaining activity (enzyme activity; 1 µM; reference: DMSO control): 81.2%
